Assay results from different studies.
Protocols differ between the studies behind these lines. Numbers after ± are the reported error.
Sequence of UniProt Q9UNQ0 (whole entry, looked up): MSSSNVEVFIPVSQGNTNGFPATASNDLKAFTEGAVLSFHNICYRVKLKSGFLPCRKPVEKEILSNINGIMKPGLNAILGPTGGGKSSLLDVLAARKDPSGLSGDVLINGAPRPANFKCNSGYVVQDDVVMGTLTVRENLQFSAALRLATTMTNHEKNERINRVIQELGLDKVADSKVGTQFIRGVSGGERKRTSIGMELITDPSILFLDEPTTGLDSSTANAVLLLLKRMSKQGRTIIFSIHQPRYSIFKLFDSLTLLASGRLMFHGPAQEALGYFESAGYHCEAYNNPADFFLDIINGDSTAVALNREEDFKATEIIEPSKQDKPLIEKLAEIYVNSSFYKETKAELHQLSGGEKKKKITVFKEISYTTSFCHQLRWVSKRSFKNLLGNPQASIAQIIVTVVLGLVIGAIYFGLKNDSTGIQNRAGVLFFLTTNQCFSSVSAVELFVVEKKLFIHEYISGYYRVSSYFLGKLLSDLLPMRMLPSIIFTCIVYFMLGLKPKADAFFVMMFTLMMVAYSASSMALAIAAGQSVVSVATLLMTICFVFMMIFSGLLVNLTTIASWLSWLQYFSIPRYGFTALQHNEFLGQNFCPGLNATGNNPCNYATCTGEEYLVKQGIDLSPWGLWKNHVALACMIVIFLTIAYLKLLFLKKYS

| Structure (SMILES) | target or system | test | system | setting | how to read | endpoint | value |
| --- | --- | --- | --- | --- | --- | --- | --- |
| COc1ccc(CNc2nc(N3CCC[C@H]3CO)ncc2C(=O)NN)cc1Cl | Salmonella typhimurium |  | TA102 | 1000 µg/plate |  | revertant count | 210 ± 14 |
| COc1cc(C(=O)NCCOCCOCCOCCNC(=O)c2ccc([18F])nc2)ccc1NC(=O)C1NC(CC(C)(C)C)C(C#N)(c2ccc(Cl)cc2F)C1c1cccc(Cl)c1F (centres unmarked) | HepG2 tumour model |  | host not given, blood | 4 h, tumour-bearing |  | tracer uptake | 0.29 %ID/g |
| O=C1c2c(ccc(O)c2O)CN1Cc1cccc(Cl)c1F | HOS | ATPlite |  | 48 h |  | CC50 | 7.8 ± 2.1 µM |
| CCC(=O)N(C)c1ccc(Cl)c(Cl)c1 | Salmonella typhimurium | Ames test | TA1535 | 1.00 mg/plate, with rat liver S9 |  | revertant colonies | 7 ± 1.2 revertants/plate |
| O=C(O)CCC(NP(=O)(O)OCCC[C@@H](NC(=O)CCC(NC(=O)CCCCCNC(=O)CCCCCNC(=O)c1ccc([18F])cc1)C(=O)O)C(=O)O)C(=O)O (some centres unmarked) | CWR22Rv1 tumour model |  | host not given, spleen | intravenous, 1 h, tumour-bearing |  | tracer uptake | 0.32 %ID/g |
| Nc1nc2c([C@@H]3O[C@@H]4COP(=O)(O)O[C@H]5[C@@H](O)[C@H](c6scc7c(=O)[nH]c(N)nc67)O[C@@H]5COP(=O)(O)O[C@H]4[C@H]3O)scc2c(=O)[nH]1 |  |  | water |  |  | emission maximum | 457 nm |
| O=P(O)(O)Oc1ccc(Oc2ccc(S(=O)(=O)CC3CS3)cc2)cc1 (racemic) |  | metabolic stability | rat, liver S9 |  |  | half-life | > 1 h |
| CN[C@](C)(C[18F])C(=O)O | MDA-MB-468 tumour model |  | host not given, muscle | 30 min, tumour-bearing |  | tracer uptake | 2.3 %ID/g |
| CCN(CC)Cc1cc(Nc2c(C)cnc3cc(Cl)ccc23)ccc1O | Vero WNV replicon cells |  |  | 24 h |  | CC50 | 66.4 ± 4.64 µM |
| COc1ccc(CNc2nc(N3CCC[C@H]3CO)ncc2C(=O)NNC(=O)c2cnc(N3CCC[C@H]3CO)nc2NCc2ccc(OC)c(Cl)c2)cc1Cl | Salmonella typhimurium |  | TA102 | 62.5 µg/plate, together with: rat liver S9 |  | revertant count | 273 ± 2 |
| Cc1nc([C@H](NC(=O)c2ccc(-c3ccc(Cl)cc3)[nH]2)[C@@H]2CCCCN2)sc1CO | TZM-bl | cell growth or viability, XTT |  |  |  | CC50 | ~24 µM |
| O=C(O)CCC(NP(=O)(O)OCCC[C@@H](NC(=O)CCC(NC(=O)c1ccc([18F])cc1)C(=O)O)C(=O)O)C(=O)O (some centres unmarked) | CWR22Rv1 tumour model |  | host not given, blood | intravenous, 1 h, tumour-bearing |  | tracer uptake | 0.15 %ID/g |
| O=C1c2ccccc2-c2c1c1c(O)cc(-c3ccccc3)cc1n2Cc1ccccc1 | ABCG2 (Homo sapiens, UniProt Q9UNQ0) | mitoxantrone efflux, inhibitor, flow cytometry | HEK293 transfected with ABCG2 | 10 µM, 30 min, together with: mitoxantrone 5 µM | relative to: Ko143 1 µM | inhibition | 56% |
| C[C@@](O)(C(F)F)[C@H](NC(=O)c1ccc(C#CC#CC2CC2)cc1)C(=O)NO |  |  | dog, plasma | intravenous, 30 mg/kg |  | half-life | 1.5 h |
